Values quoted from earlier work that unrelated publications cite.
Each line is one published result; not all experiments were run side by side. Numbers after ± are the reported error.

Compound	cell line	assay	conditions	IC50 [µM]
CC(C)(C)C1=CC(=NNC(=O)c2ccncc2)C=C(C(C)(C)C)C1=O	HEK293	cell viability	–	0.97
CC1=CC(C)=[N+]2C1=C(CO)c1c(C)cc(C)n1[B-]2(C)C	HCT-116	cell viability	white lamp irradiation	0.17 ± 0.001
O=C1OCC2=C1C(c1cccc(Br)c1)C1=C(N2)C(=O)c2ccccc2C1=O (centres unmarked)	MCF7 cells	cell growth	–	> 2.5
COc1ccc([C@H]2Oc3ccccc3C(=O)[C@]2(Cl)[N+](=O)[O-])cc1	L1210	cell growth	–	9
O=S(=O)(Cc1ccccc1Cn1cc(CNc2ncnc3ccccc23)nn1)c1ccccc1	BT-20	cell growth	–	24.6
COc1cc(/C=C/C(=O)NCCc2ccccc2)ccc1O	RAW264.7	nitric oxide production	24 h, together with: LPS 100 ng/mL	14.4 ± 2.1
CC(=O)c1ccc(Oc2cc(-c3ccco3)nc3ccccc23)cc1	activated neutrophils	beta-glucuronidase release	–	7.5
COc1ccc(/C=C/C(=N)/C=C2/C(=O)Nc3cc(Br)ccc32)cc1	H1650	cell growth	–	> 100
Oc1cccc(-c2cccc(O)n2)n1.[Cl-].[Cl-].[Ru+2].c1cnc2c(c1)c1c(c3cccnc32)OCCO1.c1cnc2c(c1)c1c(c3cccnc32)OCCO1	MCF-10A	cell viability	together with: blue light 450 nm, 1 h	29
COC1CC(=O)C2(CO)C3CCC4(C)C(C(C)C5CC(C)=C(CO)C(=O)O5)CCC4C3CC3OC32C1O (centres unmarked)	Hs-578T	cell growth	–	8.43
CCC1=C(O)c2c(oc(-c3ccc(OC)c4ccccc34)cc2=O)C(CC)(CC)C1=O	SK-BR-3	cell growth, SRB	–	2.27
COc1ccc(/C=C(\C)C(=O)c2cc(OC)c(OC)c(OC)c2)cc1O	K562	–	–	0.00021
COc1cc(/C=N/N2C(=O)c3ccccc3NC2c2cc(OC)c(O)c([N+](=O)[O-])c2)cc([N+](=O)[O-])c1O (centres unmarked)	human renal tubule TH-1	cytotoxicity	–	> 1000
CC1=C(CO)C(=O)O[C@@H]([C@@H](C)[C@H]2CC[C@H]3[C@@H]4C[C@H]5O[C@]56[C@@H](O)C=CC(=O)[C@]6(C)[C@H]4CC[C@]23C)C1	Hep3B	cell growth	–	0.13
COc1ccccc1NC(=O)N[C@H](C(=O)Nc1ccc(C(=O)NO)cc1)c1ccccc1	H7402	cell viability, MTT	–	> 20
CCN(CC)c1ccc2c(c1)Oc1cc(N(CC)CC)ccc1C21c2ccccc2C(=O)N1N=Cc1ccnc(-c2cc(C)ccn2)c1.Cc1c(C)c(-c2ccc(-c3ccccc3)cc2)[c-](C)c1C.F[P-](F)(F)(F)(F)F.[Cl-].[Ir+3]	HeLa cancer cells	–	–	4.2 ± 0.2
O=C1OCC2=C1C(c1ccccc1[N+](=O)[O-])C1=C(N2)C(=O)c2ccccc2C1=O (centres unmarked)	HEK293 cells	cell growth	–	4.78 ± 0.14
CC(=O)OCC1=C(C)CC(C(C)C2CCC3C4CC5OC56C(OC(C)=O)C=CC(=O)C6(COC(C)=O)C4CCC23C)OC1=O (centres unmarked)	Hs-578T	cell growth	–	0.32
CC1=C2[O][Ru-]([Cl])[O+]=C2C=CN1CCCCCCN1C=CC2=[O+][Ru-]([Cl])[O]C2=C1C.Cc1ccc(C(C)C)cc1.Cc1ccc(C(C)C)cc1	SW480	MTT	–	26 ± 8
[Cl-].[Cl-].[Ru+2].c1ccc(-c2ccccn2)nc1.c1ccc(-c2ccccn2)nc1.c1cnc2c(c1)ccc1cccnc12	HT-29	–	light irradiation	> 100

Excerpt of the above:
Compound	cell line	assay	conditions	IC50 [µM]
COc1ccc(/C=C/C(=N)/C=C2/C(=O)Nc3cc(Br)ccc32)cc1	H1650	cell growth	–	> 100
O=S(=O)(Cc1ccccc1Cn1cc(CNc2ncnc3ccccc23)nn1)c1ccccc1	BT-20	cell growth	–	24.6
COc1ccccc1NC(=O)N[C@H](C(=O)Nc1ccc(C(=O)NO)cc1)c1ccccc1	H7402	cell viability, MTT	–	> 20
